{"sequences": {"note": "Chains of the proteins cited; added tags and fusions are not shown. Residues count along the entry.", "UniProt P04150, whole entry": "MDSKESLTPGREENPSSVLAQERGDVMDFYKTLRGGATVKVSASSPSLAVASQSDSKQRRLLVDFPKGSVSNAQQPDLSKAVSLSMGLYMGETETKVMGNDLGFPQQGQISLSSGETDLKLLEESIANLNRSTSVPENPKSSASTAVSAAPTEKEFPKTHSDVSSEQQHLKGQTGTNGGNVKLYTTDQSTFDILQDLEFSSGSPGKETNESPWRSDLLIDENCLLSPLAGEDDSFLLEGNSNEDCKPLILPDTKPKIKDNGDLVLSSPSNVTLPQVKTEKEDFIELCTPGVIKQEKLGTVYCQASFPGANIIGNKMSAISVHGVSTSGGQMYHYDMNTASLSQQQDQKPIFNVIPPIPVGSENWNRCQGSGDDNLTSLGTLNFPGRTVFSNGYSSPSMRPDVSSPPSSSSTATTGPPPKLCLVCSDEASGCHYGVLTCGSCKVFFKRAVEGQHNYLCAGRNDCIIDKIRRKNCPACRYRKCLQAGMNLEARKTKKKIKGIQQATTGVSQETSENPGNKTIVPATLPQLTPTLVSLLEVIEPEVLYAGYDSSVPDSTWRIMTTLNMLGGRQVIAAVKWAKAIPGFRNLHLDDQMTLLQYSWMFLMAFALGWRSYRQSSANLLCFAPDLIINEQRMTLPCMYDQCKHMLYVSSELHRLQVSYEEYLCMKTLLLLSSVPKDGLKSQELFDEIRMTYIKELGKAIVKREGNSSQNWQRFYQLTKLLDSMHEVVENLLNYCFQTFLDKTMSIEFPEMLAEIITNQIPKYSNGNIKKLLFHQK", "UniProt P18031, whole entry": "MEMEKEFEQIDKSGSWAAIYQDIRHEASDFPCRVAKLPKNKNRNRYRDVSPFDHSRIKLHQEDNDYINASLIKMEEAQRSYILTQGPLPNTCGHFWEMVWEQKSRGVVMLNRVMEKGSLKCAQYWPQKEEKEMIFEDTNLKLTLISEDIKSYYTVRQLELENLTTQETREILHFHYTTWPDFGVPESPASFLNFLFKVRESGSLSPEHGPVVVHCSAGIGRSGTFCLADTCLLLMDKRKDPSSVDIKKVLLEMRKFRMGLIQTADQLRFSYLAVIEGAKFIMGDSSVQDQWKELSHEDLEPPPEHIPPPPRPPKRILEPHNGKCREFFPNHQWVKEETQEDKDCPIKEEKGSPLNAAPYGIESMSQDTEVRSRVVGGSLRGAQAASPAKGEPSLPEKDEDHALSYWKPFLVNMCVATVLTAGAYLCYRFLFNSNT", "UniProt P00533, 25-1210 T790M/L858R limits assumed": "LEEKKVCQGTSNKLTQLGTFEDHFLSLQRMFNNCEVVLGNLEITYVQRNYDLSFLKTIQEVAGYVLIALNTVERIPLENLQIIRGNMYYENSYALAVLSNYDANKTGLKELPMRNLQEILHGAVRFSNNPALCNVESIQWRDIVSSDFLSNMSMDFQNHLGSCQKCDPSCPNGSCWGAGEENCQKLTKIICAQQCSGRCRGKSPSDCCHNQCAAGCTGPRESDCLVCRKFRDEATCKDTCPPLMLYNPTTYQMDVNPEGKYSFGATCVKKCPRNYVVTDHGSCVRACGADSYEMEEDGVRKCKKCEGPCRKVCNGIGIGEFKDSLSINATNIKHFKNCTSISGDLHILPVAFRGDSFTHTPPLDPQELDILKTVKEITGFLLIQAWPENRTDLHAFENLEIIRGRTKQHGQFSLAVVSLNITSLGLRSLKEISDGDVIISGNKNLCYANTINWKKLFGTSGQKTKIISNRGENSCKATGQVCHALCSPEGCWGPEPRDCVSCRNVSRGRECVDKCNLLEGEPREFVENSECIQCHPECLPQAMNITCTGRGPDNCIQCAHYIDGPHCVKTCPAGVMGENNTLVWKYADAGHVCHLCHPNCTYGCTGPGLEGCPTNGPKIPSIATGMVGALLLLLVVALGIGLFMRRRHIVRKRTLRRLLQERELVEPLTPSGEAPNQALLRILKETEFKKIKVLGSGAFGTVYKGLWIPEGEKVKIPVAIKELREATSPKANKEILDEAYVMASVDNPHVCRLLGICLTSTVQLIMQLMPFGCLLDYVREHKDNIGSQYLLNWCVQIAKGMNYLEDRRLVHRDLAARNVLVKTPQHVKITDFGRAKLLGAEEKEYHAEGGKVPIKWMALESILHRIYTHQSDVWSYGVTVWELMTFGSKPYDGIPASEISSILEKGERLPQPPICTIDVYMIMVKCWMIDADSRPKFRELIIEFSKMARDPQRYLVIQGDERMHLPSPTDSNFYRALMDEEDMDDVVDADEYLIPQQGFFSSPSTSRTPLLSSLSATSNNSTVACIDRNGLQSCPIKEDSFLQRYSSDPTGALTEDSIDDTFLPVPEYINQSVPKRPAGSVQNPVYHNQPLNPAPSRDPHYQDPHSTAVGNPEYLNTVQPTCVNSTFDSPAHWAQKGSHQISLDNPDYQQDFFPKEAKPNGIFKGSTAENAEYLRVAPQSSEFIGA", "UniProt P10636, whole entry, looked up": "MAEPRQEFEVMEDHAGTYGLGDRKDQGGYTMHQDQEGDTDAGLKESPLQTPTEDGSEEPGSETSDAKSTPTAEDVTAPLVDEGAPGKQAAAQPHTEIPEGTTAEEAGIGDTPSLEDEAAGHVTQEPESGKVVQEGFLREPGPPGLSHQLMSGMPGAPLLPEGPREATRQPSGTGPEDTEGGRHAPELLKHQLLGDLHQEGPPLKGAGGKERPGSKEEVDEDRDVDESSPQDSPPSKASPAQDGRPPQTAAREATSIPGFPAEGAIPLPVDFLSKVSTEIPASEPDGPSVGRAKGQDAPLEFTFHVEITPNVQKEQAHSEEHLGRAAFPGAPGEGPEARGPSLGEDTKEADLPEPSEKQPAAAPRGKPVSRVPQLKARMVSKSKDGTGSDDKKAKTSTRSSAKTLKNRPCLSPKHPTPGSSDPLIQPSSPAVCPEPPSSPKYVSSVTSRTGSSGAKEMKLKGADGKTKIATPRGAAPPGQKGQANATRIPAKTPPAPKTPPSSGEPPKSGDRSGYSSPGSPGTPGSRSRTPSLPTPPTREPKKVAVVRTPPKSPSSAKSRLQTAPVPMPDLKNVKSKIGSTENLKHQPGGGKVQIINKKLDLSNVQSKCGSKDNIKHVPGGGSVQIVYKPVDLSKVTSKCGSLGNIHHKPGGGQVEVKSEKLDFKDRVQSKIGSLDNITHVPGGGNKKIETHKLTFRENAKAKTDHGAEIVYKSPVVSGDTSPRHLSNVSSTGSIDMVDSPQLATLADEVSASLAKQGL", "UniProt Q01813, whole entry": "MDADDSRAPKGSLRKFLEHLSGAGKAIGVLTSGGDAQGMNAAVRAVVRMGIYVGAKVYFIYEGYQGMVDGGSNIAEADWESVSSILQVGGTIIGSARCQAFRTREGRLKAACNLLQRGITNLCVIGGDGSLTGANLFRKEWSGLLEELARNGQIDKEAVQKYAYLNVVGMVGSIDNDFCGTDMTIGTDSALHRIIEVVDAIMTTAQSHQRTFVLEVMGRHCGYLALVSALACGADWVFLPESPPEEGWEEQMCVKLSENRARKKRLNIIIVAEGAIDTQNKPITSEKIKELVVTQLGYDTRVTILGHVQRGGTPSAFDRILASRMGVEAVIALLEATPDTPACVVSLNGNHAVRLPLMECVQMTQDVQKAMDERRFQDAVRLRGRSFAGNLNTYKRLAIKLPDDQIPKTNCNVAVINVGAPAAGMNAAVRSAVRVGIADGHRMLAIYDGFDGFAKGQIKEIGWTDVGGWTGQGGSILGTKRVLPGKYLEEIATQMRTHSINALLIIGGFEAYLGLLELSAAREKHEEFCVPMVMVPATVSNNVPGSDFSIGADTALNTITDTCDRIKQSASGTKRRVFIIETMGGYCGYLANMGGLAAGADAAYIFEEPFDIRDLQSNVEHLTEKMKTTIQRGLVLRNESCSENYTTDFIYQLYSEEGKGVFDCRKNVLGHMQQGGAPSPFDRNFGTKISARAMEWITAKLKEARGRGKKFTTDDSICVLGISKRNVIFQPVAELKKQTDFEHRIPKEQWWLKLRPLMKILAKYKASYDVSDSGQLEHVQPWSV", "UniProt O75874, whole entry R132C": "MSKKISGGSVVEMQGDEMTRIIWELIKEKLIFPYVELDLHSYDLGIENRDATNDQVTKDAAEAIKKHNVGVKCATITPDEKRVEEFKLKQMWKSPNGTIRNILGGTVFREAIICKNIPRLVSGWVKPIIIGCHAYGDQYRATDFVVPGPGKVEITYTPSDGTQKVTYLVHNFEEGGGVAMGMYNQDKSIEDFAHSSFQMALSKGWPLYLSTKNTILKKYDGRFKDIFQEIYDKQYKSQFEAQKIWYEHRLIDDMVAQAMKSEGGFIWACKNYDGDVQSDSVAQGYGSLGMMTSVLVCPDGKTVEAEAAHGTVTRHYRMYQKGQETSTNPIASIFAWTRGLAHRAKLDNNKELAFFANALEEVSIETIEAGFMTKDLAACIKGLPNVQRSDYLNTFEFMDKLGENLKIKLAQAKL", "UniProt O75874, whole entry partner": "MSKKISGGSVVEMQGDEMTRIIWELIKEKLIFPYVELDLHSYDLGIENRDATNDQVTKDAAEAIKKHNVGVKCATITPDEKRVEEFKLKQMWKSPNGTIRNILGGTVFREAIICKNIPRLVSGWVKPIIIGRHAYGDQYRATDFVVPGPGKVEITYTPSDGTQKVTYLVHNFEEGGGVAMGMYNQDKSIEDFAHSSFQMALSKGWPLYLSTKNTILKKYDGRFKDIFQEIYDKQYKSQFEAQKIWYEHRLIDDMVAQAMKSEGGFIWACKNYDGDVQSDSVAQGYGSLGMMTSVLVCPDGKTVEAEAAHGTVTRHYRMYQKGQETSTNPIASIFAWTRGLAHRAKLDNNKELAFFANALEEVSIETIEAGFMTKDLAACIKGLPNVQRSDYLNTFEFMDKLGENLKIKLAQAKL", "UniProt Q7L7X3, whole entry": "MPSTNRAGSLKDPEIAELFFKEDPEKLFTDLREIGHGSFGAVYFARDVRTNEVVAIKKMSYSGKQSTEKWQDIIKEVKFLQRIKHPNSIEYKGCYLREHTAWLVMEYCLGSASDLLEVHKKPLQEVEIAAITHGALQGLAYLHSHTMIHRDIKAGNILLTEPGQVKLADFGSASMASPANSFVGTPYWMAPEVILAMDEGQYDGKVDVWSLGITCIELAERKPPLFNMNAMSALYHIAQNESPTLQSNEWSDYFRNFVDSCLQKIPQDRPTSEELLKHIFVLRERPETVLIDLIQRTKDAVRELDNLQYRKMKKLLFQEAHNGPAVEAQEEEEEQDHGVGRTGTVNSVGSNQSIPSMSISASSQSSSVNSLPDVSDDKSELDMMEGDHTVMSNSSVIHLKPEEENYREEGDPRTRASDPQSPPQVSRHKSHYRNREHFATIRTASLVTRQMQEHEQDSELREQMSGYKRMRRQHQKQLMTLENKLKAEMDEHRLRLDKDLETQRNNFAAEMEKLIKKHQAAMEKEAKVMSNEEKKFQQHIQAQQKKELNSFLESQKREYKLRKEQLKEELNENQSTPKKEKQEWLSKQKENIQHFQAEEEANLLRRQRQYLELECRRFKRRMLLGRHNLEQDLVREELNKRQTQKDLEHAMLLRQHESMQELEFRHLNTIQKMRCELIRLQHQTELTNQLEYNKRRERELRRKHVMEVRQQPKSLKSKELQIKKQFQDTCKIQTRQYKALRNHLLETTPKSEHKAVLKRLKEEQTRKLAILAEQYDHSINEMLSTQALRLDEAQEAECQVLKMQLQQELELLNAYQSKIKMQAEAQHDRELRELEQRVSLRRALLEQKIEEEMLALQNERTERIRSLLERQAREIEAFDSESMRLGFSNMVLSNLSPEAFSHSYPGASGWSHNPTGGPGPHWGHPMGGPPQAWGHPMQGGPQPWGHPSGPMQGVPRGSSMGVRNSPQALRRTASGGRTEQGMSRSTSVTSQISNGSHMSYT", "UniProt P31749, whole entry": "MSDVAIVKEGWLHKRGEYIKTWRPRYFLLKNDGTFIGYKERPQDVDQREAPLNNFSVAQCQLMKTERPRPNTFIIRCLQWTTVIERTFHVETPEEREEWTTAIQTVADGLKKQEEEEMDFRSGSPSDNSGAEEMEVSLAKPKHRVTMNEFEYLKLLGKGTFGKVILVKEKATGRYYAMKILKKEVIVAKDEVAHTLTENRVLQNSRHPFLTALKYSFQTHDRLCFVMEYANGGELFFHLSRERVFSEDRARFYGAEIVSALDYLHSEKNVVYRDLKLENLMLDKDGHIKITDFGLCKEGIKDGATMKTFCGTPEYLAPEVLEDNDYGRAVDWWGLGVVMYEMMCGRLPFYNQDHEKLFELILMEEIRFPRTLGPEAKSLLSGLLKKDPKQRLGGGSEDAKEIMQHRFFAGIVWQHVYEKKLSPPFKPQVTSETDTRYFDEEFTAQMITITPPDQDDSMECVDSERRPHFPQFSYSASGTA", "UniProt P16083, whole entry": "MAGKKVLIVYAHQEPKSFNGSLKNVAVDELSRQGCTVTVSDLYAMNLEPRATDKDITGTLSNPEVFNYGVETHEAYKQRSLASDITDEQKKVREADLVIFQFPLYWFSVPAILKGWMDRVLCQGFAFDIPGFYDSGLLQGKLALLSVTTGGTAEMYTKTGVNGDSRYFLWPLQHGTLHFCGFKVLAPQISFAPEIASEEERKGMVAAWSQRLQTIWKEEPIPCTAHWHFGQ"}, "data": "Measured values gathered from unrelated publications", "NR3C1": "Glucocorticoid receptor (NR3C1, Homo sapiens, UniProt P04150)", "PTPN1": "Tyrosine-protein phosphatase non-receptor type 1 (PTPN1, Homo sapiens, UniProt P18031)", "F2": "Prothrombin (F2, Bos taurus, UniProt P00735)", "note": "Compare with care: the assays were run in different laboratories. ± gives the spread as reported."}
{"SMILES": "CCN1CCN(Cc2ccc(NC(=O)c3ccc(C)c(Oc4ncnc5cc(OC)c(OC)cc45)c3)cc2C(F)(F)F)CC1", "target": "Mitogen-activated protein kinase 14 (MAPK14, Homo sapiens, UniProt Q16539)", "assay": "enzyme activity, Z'-LYTE", "conditions": "together with: ATP at Km", "measurement": "IC50", "result": "126 nM"}
{"SMILES": "C[C@H](NCCN(C)C)[C@@H]1CC[C@@H]2[C@H]3CCc4cc(O)ccc4[C@H]3CC[C@]21C", "target": "NR3C1", "assay": "nuclear translocation, agonist, enzyme fragment complementation", "measurement": "EC50", "result": "> 9000 nM"}
{"SMILES": "O=C(Nc1cccnn1)N1CC(Oc2ccc(-c3ccccc3F)cn2)C1", "target": "Fatty-acid amide hydrolase 1 (FAAH, Homo sapiens, UniProt O00519)", "assay": "enzyme activity, inhibitor", "measurement": "IC50", "result": "~60 nM"}
{"SMILES": "O=C1CCC(N2C(=O)c3cccc(NCCOCCOCCOCCN4CCN(c5ccc(-c6ccc7c(c6)C(=O)N(C(C(=O)Nc6nccs6)c6ccccc6)C7)cn5)CC4)c3C2=O)C(=O)N1 (stereo not shown)", "target": "Epidermal growth factor receptor (EGFR, Homo sapiens, UniProt P00533, L858R/T790M)", "assay": "enzyme activity, HTRF", "measurement": "IC50", "result": "45 nM"}
{"SMILES": "Fc1cc(-c2ccc3c(n2)[nH]c2ccncc23)ccn1 [isotope labelled]", "target": "Microtubule-associated protein tau, paired helical filaments (MAPT, Homo sapiens, UniProt P10636)", "assay": "radioligand binding", "test system": "PHF tau brain homogenate", "conditions": "37.19 nM", "how to read": "higher = more binding", "measurement": "specific binding", "result": "15.5 a.u."}
{"SMILES": "O=c1/c(=C/c2ccc(-c3ccccc3[N+](=O)[O-])o2)sc2nc3cc(Br)cnc3n12", "target": "PTPN1", "assay": "phosphatase activity, inhibitor", "conditions": "together with: OMFP", "measurement": "IC50", "result": "~100000 nM"}
{"SMILES": "O=C(Nc1ccc(Cl)cc1)C(NS(=O)(=O)c1cccs1)c1ccccc1 (single isomer, unassigned)", "target": "Uracil nucleotide/cysteinyl leukotriene receptor, long isoform (GPR17, Homo sapiens, UniProt Q13304)", "assay": "calcium mobilization, antagonist", "test system": "1321-N1", "measurement": "IC50", "result": "4360 ± 360 nM"}
{"SMILES": "O=[N+]([O-])c1cccc(C2Nc3ccc(Cl)cc3C3C=CCC32)c1 (stereo not shown)", "target": "F2", "assay": "enzyme activity", "conditions": "30 min preincubation, together with: pyroGlu-Pro-Arg-pNA", "measurement": "IC50", "result": "> 20000 nM"}
{"SMILES": "O=C(Oc1c(F)c(F)c(F)c(F)c1F)C(c1ccccc1)c1ccccc1", "target": "ATP-dependent 6-phosphofructokinase, platelet type (PFKP, Homo sapiens, UniProt Q01813)", "assay": "probe labelling, inhibitor, gel-based ABPP", "measurement": "IC50", "result": "2000 nM"}
{"SMILES": "O=c1/c(=C/c2ccccc2Cl)sc2nc3cc(Br)cnc3n12", "target": "Tyrosine-protein phosphatase non-receptor type 22 (PTPN22, Homo sapiens, UniProt Q9Y2R2)", "assay": "phosphatase activity, inhibitor", "conditions": "together with: OMFP", "measurement": "IC50", "result": "> 100000 nM"}
{"SMILES": "Cc1cccc(NC(=O)c2nn(Cc3cnc[nH]3)c3c2CN(C(=O)c2ccc[nH]2)CC3)c1", "target": "Isocitrate dehydrogenase [NADP] cytoplasmic (IDH1, Homo sapiens, UniProt O75874, R132C)", "assay": "2-HG production, inhibitor, LC-MS/MS", "test system": "HT-1080", "measurement": "IC50", "result": "> 36000 nM"}
{"SMILES": "CC1(C)CC(=O)c2c(oc3c(Br)cc(NS(=O)(=O)c4ccccc4)cc23)C1", "target": "F2", "assay": "enzyme activity", "conditions": "30 min preincubation, together with: pyroGlu-Pro-Arg-pNA", "measurement": "IC50", "result": "> 20000 nM"}
{"SMILES": "CN1C(=O)c2ccccc2N(C)c2nc(Nc3ccc(N4CCC(O)CC4)cc3)ncc21", "target": "Serine/threonine-protein kinase TAO1 (TAOK1, Homo sapiens, UniProt Q7L7X3)", "assay": "kinase activity", "measurement": "IC50", "result": "< 100 nM"}
{"SMILES": "CN1C/C(=C\\c2ccccn2)C(=O)[C@@H](Cc2ccccn2)C1", "target": "RAC-alpha serine/threonine-protein kinase (AKT1, Homo sapiens, UniProt P31749)", "assay": "enzyme activity, inhibitor, Z'-LYTE", "measurement": "IC50", "result": "> 100000 nM"}
{"SMILES": "CC(C)(O)Cc1ccc2c(c1)c1cc(OCCC3CC3)ccc1c1nc(-c3c(C#N)cc(F)cc3C#N)[nH]c21", "target": "Prostaglandin E synthase (PTGES, Homo sapiens, UniProt O14684)", "assay": "PGE2 production, inhibitor, LC-MS/MS", "test system": "KB", "conditions": "together with: IL-1β", "measurement": "IC50", "result": "63 nM"}
{"SMILES": "O=c1/c(=C/c2ccc(-c3cc(Cl)cc(Cl)c3)o2)sc2nc3cc(Br)cnc3n12", "target": "PTPN1", "assay": "phosphatase activity, inhibitor", "conditions": "together with: OMFP", "measurement": "IC50", "result": "> 100000 nM"}
{"SMILES": "CN(C)S(=O)(=O)c1cccc(-n2sc3ccccc3c2=O)c1", "target": "Phosphoethanolamine/phosphocholine phosphatase (Homo sapiens, UniProt Q8TCT1)", "assay": "enzyme activity, inhibitor, phosphate release", "conditions": "60 min, pH 6.7, together with: phosphoethanolamine 62.5 µM", "measurement": "IC50", "result": "140 ± 30 nM"}
{"SMILES": "CC(=O)O[C@H]1CC[C@H]2[C@@H]3CCC4=C[C@@H](C5SCCS5)[C@H](OC(C)=O)C[C@]4(C)[C@H]3CC[C@@]12C", "target": "NR3C1", "assay": "nuclear translocation, agonist, enzyme fragment complementation", "measurement": "EC50", "result": "> 9000 nM"}
{"SMILES": "c1ccc2[nH]c3c(N=NC4=NCCN4)c4ccccc4c-3nc2c1", "target": "Ribosyldihydronicotinamide dehydrogenase [quinone] (NQO2, Homo sapiens, UniProt P16083)", "assay": "enzyme activity, inhibitor", "conditions": "together with: 200 µM NRH, DCPIP, 2 µM BSA", "measurement": "IC50", "result": "180 ± 50 nM"}
{"SMILES": "CC[C@@H]1C(=O)N(C)c2cnc(Nc3ccc(C(=O)NC4CCN(C)CC4)cc3OC)nc2N1C1CCCC1", "target": "Bromodomain testis-specific protein, BD1 (BRDT, Homo sapiens, UniProt Q58F21)", "conditions": "10 µM", "measurement": "delta Tm", "result": "4.03 ± 0.13 °C"}
{"SMILES": "Cc1cc(C)c2nc3s/c(=C\\c4ccc(-c5ccccc5C(=O)O)o4)c(=O)n3c2c1", "target": "Tyrosine-protein phosphatase non-receptor type 5 (PTPN5, Homo sapiens, UniProt P54829)", "assay": "phosphatase activity, inhibitor", "conditions": "together with: OMFP", "measurement": "IC50", "result": "~100000 nM"}
{"SMILES": "COc1cc(CC(=O)NCC(NC(=O)C(CCCNC(=O)c2cccc(I)c2)NC(=O)C(Cc2ccc(C(F)(F)P(=O)(O)O)cc2)NC(=O)c2ccc(C)c(Br)c2)C(N)=O)ccc1O (stereo not shown)", "target": "Tyrosine-protein phosphatase non-receptor type 11 (PTPN11, Homo sapiens, UniProt Q06124)", "assay": "enzyme activity", "conditions": "10 µM", "measurement": "inhibition", "result": "no inhibition"}
{"note": "Excerpt of the above:"}
{"SMILES": "O=c1/c(=C/c2ccc(-c3ccccc3[N+](=O)[O-])o2)sc2nc3cc(Br)cnc3n12", "target": "PTPN1", "assay": "phosphatase activity, inhibitor", "conditions": "together with: OMFP", "measurement": "IC50", "result": "~100000 nM"}
{"SMILES": "O=[N+]([O-])c1cccc(C2Nc3ccc(Cl)cc3C3C=CCC32)c1 (stereo not shown)", "target": "F2", "assay": "enzyme activity", "conditions": "30 min preincubation, together with: pyroGlu-Pro-Arg-pNA", "measurement": "IC50", "result": "> 20000 nM"}
{"SMILES": "O=C(Nc1ccc(Cl)cc1)C(NS(=O)(=O)c1cccs1)c1ccccc1 (single isomer, unassigned)", "target": "Uracil nucleotide/cysteinyl leukotriene receptor, long isoform (GPR17, Homo sapiens, UniProt Q13304)", "assay": "calcium mobilization, antagonist", "test system": "1321-N1", "measurement": "IC50", "result": "4360 ± 360 nM"}
